Results collected from several papers.
Each line is one published result; not all experiments were run side by side. Several values in a cell are separate wells, animals, samples, runs or records. Values after ≈ are worked out from the molar mass of the structure shown.

O=C(Cc1ccccc1)NC1CCOC1=O (stereo not shown)
activation (ExpR1 (Pectobacterium carotovorum); cellulase activity, agonist; Pectobacterium carotovorum, single-ExpR1 strain; 200 µM, 4 h; reference: OHHL): 6%

CC[C@H](C)[C@@H]1NC(=O)[C@@H]2CCCN2C(=O)[C@H](CC(C)C)NC(=O)[C@H](CC(C)C)NC(=O)CNC(=O)[C@@H](NC(=O)[C@@H](NC(=O)[C@H](CC(=O)O)NC(=O)CNC(=O)[C@@H](NC(=O)[C@H](C)NC(=O)CNC(=O)[C@H](CCCCN)NC(=O)[C@H](CC(C)C)NC(=O)[C@H](CC(C)C)NC(=O)[C@H](CCCCN)NC(=O)CNC(=O)[C@@H](NC(=O)[C@@H](N)CC(C)C)C(C)C)C(C)C)C(C)C)CSSC[C@@H](C(=O)O)NC1=O
log2 fold change (RNA-seq, measured: Nat1; mouse, traumatic brain injury model, frontal cortex and hippocampus; dose not given; reference: TBI alone): 1.23

O=C1CCP(=S)(c2ccccc2)CC1
selectivity index (PC-3; MTT; 72 h; reference: IC50 HaCaT over IC50 PC-3): 2.4

COc1ccc(-n2nc(C(C)=O)s/c2=N\N=C(/C)c2ccc(NC(C)=O)cc2)cc1
mRNA level (MCF7; RT-PCR, measured: BAX mRNA; 0.04 µM; reference: untreated control): 6.77 fold change

O=C(Cc1ccc(Cl)cc1)N[C@H]1CCOC1=O
inhibition (ExpR1 (Pectobacterium carotovorum); cellulase activity, antagonist; Pectobacterium carotovorum, single-ExpR1 strain; 5 µM, 4 h, added: OHHL 5 µM): 78%

CC[C@@H](NC(=O)CNC(=O)[C@@H](CC(C)C)NC(=O)CNC(=O)[C@H](N)CCC(N)=O)C(=O)N[C@H](CC(=O)O)C(=O)N[C@H](CCC(=O)O)C(=O)N[C@H](CC(N)=O)C(=O)N[C@H](CC(C)C)C(=O)N[C@H](CCC(N)=O)C(=O)NCC(=O)N[C@H](Cc1ccccc1)C(=O)N[C@H](C)C(=O)N[C@@H](C(=O)N[C@H](C)C(=O)N[C@@H](C(=O)N[C@H](CCCCN)C(=O)N[C@H](CCSC)C(=O)NCC(=O)N[C@H](C)C(=O)N[C@H](Cc1ccc(O)cc1)C(=O)N[C@H](CCCCN)C(=O)N[C@H](C)C(=O)N[C@H](Cc1c[nH]c2ccccc12)C(=O)O)C(C)C)C(C)C
IC50 (hemagglutinin influenza A/California/07/2009 H1N1): 43 µM

CC[C@H](C)[C@H](NC(=O)[C@H](C)NC(=O)[C@H](CCCCN)NC(=O)[C@H](CC(C)C)NC(=O)[C@H](C)NC(=O)[C@@H](NC(=O)[C@H](Cc1c[nH]cn1)NC(=O)[C@H](CC(C)C)NC(=O)[C@@H](NC(=O)[C@@H](NC(=O)[C@H](CCCCN)NC(=O)[C@H](C)NC(=O)[C@H](C)NC(=O)[C@H](CO)NC(=O)[C@H](CCCCN)NC(=O)[C@H](Cc1ccccc1)NC(=O)[C@@H](NC(=O)[C@H](CCCCN)NC(=O)[C@H](CC(C)C)NC(=O)[C@H](Cc1ccccc1)NC(=O)[C@H](CO)NC(=O)[C@H](CCCCN)NC(=O)[C@H](Cc1c[nH]c2ccccc12)NC(=O)[C@H](CCCCN)NC(C)=O)[C@@H](C)O)[C@@H](C)O)C(C)C)[C@@H](C)O)C(=O)N[C@@H](CO)C(=O)N[C@@H](CO)C(N)=O
MIC geometric mean (Acinetobacter baumannii; ATCC 19606): 2 µg/mL (≈ 0.682 µM)

Nc1ncnc2c1ncn2[C@@H]1O[C@@H]2COP(=O)(O)O[C@H]3[C@@H](O)[C@H](n4cnc5c(=O)[nH]cnc54)O[C@@H]3COP(=O)(O)O[C@H]2[C@H]1O
fold enrichment (West Nile virus; RNA sequencing, measured: signaling, interferon gamma, R-HSA-877300; HFF-1 cells; concentration not given, upregulated pathway; reference: WNV-infected untreated cells): 8.43

O=C(Cc1ccccc1I)N[C@H]1CCOC1=O
activation (ExpR1 (Pectobacterium carotovorum); cellulase activity, agonist; Pectobacterium carotovorum, single-ExpR1 strain; 200 µM, 4 h; reference: OHHL): 11%

CC1(C)NC(=O)N(c2ccc(F)c(C(F)(F)F)c2)C1=O
antiparasitic activity (pathogenic nematodes, cestode, protozoa; concentration not given): inactive

CS(=O)(=O)Nc1ncn(-c2cc(F)c(COc3ccc(OS(=O)(=O)F)cc3)c(F)c2)n1
inhibition (Eurofins safety panel targets (human); 10 µM): ≤ 50%

COc1c(CCC[P+](c2ccccc2)(c2ccccc2)c2ccccc2)cc2c(c1OC)OCO2.[I-]
TGI (SK-MEL-2; SRB): -4.85 log M

COc1ccc2c(ccc3oc([N+](=O)[O-])cc32)c1
MIC90 (Mycobacterium bovis BCG; 1173 P2): 0.125 µg/mL (≈ 0.514 µM)

COCCC1=C(C(=O)OC)C(c2ccc(Cl)cc2C)C2=C(CC(c3ccc(OC)c(OC)c3)OC2=O)N1 (single isomer, unassigned)
inhibition (Plasmodium berghei; parasitaemia; KBG-173, mouse; oral, 50 mg/kg, day 6 post-infection, PEG400 vehicle, Thompson test; reference: vehicle): < 10%

CN1CCN(C2(CNC3CCN(c4cccc(-c5cc6cc(F)ccc6[nH]5)c4)CC3)CCC2)CC1
GI50 (Hs-578T): 2.22 µM

COc1cc(CCC[P+](c2ccccc2)(c2ccccc2)c2ccccc2)c(OC)c2c1OCO2.[I-]
TGI (SK-MEL-2; SRB): -4.98 log M

c1ccc(C(NCCNC(c2ccccc2)c2ccccc2)c2ccccc2)cc1
inhibition (GABA transporter (rat); Eurofins selectivity panel; 10 µM): 46%

CC(C)C[C@H](CN)CC(=O)O
rheobase (whole-cell current clamp; DRG neurons, rat, spinal cord injury; 10 µM, overnight, added: nimodipine 5 µM): 35 pA and 200 pA and 100 pA and 125 pA and 165 pA and 160 pA

CCCCC1(CCCC)CN(c2ccccc2)c2cc(SC)c(OCC(=O)N[C@@H](C(=O)NCC(=O)O)c3ccccc3)cc2S(=O)(=O)C1
serum HDL-C (measured: HDL cholesterol; human, serum; 2.5 mg once daily, day 7): 56 mg/dL

N=C(N)c1ccc(OCc2ccc(Br)cc2COc2ccc(C(=N)N)cc2)cc1
MIC (Escherichia coli; mcr-2 polymyxin-resistant; 20 h, compound alone): 200 µg/mL (≈ 441 µM)

C#CC[C@@H](N)C(=O)N[C@H](CO)C(=O)N[C@@H](C(=O)N[C@H](CO)C(=O)N[C@H](CCC(=O)O)C(=O)N[C@@H](C(=O)N[C@H](CCC(N)=O)C(=O)N[C@H](CC(C)C)C(=O)N[C@H](CCSC)C(=O)N[C@H](Cc1c[nH]cn1)C(=O)N[C@H](CC(N)=O)C(=O)N[C@H](CC(C)C)C(=O)NCC(=O)N[C@H](CCCCN)C(=O)N[C@H](Cc1c[nH]cn1)C(=O)N[C@H](CC(C)C)C(=O)N[C@H](CC(N)=O)C(=O)N[C@H](CO)C(=O)N[C@H](CCSC)C(=O)N[C@H](CCC(=O)O)C(=O)N[C@H](CCCNC(=N)N)C(=O)N[C@@H](C(=O)N[C@H](CCC(=O)O)C(=O)N[C@H](Cc1c[nH]c2ccccc12)C(=O)N[C@H](CC(C)C)C(=O)N[C@H](CCCNC(=N)N)C(=O)N[C@H](CCCCN)C(=O)N[C@H](CCCCN)C(=O)N[C@H](CC(C)C)C(=O)N[C@H](CCC(N)=O)C(=O)N[C@H](CC(=O)O)C(=O)N[C@@H](C(N)=O)C(C)C)C(C)C)[C@H](C)CC)C(C)C
IC50 (hemagglutinin influenza A/California/07/2009 H1N1): > 250 µM

C[C@H]1COCCN1c1nc(NCc2cccnc2C(F)(F)F)c2cccnc2n1
mice with microfilariae (Brugia malayi; SCID mouse; dose not given, 6 weeks post-treatment, dosing x14d): 20%
